Assay results gathered from unrelated publications.
Every numbered part comes from another study and shows a few of its results, in no order.

Study 1 — method: RNA Bind-n-Seq; form: RNA; sample: in vitro; concentration: 200 nM; notes: whole 134-nt RNA, ends assumed; with: 150 mM KCl; reference: input library; reading: higher = stronger binding
Target: Ras GTPase-activating protein-binding protein 1, full length (G3BP1, Homo sapiens, UniProt Q13283)
UniProt Q13283, sequence (whole entry, looked up): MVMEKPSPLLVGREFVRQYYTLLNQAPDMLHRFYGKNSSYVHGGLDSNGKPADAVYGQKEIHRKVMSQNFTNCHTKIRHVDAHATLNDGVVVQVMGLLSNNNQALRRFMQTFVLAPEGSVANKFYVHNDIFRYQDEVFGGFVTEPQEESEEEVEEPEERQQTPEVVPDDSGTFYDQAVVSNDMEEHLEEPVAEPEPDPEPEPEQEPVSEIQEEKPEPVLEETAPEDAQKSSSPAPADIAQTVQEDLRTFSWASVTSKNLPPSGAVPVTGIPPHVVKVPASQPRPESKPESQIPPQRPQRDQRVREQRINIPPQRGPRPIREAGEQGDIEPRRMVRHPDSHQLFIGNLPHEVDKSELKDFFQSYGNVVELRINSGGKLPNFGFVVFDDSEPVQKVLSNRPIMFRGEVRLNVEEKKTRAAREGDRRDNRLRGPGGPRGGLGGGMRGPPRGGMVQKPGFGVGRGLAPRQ
All sequences stand within: GGGAGUUCUACAGUCCGACGAUC … UGGAAUUCUCGGGUGUCAAGG
Strand	log2 enrichment
UGGCCCUGGUGGCAUGCGGGGAGGAAGAGGUGGCCUCAUGGAUCGUGGUGGUCCCGGUGGAAUGUUCCGAGGUGGCCGUGGUGGAGACAG	0.0771
AGUCCUGUGCUACACAUCGUAUGUACCGAAUCGGGGCCCCGGGGCCCCGGCCCCGGGGAAAGUAUUAUGUUACGCCGUUCGGAUCUGCAC	-0.549
CCUCAAGUCCUGUGCUACACAUCGUAUGUACCGAAUCGGGCGGGCGGGGCGGGAAAGUAUUAUGUUACGCCGUUCGGAUCUGCACUUCCA	1.56
GCAGGAAGUAAAAACAAAUGGAAAUGCUUCGGAUAGUGGCAGGGGUGGGGGUUGCUAAGGAAAGGGUGGGAUCGGAGUGGGUAAAGAGUU	0.822
GGACACAGCUUGGGCUAUGGCUUUGUGAACUACGUGACCGCGAAGGAUGCAGAGAGAGCGAUCAACACGCUGAACGGCUUGAGGCUCCAG	-1.78
UGGAGCCCAACCUGUGCCGCUCAGUCCUCAUUGCCAACACGGUCCGGCAGAUCCAAGAGGAGAUGACGCAGGAUGGGACGUGGCGCACAG	-0.836
CACAGACAACACGCACCCACACAGACACAGAGGGAACGGGUUGGGAUGGGGACAGGGUGCACAGCAGGGCGGGGUAGGACCCCAGCCCCU	1.97
UGGCCCUGGUGGCAUGCGGGGAGGAAGAGGUGGCCUCAUGGAUCGUGGUGGUCCCGUUGGAAUGUUCAGAGGUGGCCGUGGUGGAGACAG	0.148
ACCAUGCAGGUGGGCAUCUUUGGGAAGUGGGGCAAGGGGGGGAUAGGGAGGGGGGUAACACUUUGGGAACAAAUGGUCCCAGGUCGUUUC	0.959

Study 2 — method: RNAcompete; form: RNA; sample: in vitro; concentration: 20 nM; notes: 7-mer, probes averaged, single round; reference: mean of 7-mers; reading: higher = stronger binding
Target: PABPC1L2, full length, GST fusion (mouse, UniProt A0ABA7IW68)
Target sequence (chain): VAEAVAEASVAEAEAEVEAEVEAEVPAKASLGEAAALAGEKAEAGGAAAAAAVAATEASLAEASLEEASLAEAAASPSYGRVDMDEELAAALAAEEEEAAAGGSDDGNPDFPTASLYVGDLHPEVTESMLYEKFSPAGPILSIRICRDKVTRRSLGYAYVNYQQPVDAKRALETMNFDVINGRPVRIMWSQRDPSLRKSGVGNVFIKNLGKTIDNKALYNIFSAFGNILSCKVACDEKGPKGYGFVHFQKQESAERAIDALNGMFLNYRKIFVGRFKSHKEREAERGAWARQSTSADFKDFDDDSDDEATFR
Strand	7-mer Z-score
CGUACGU	-0.333
UUGGGGA	0.149
UAGCCGU	-0.349
AGCAGCU	-0.19
AUGCAUU	-0.193
AAGUGAG	0.227
AGGGGCA	0.68

Study 3 — method: universal PBM; form: double-stranded DNA, one strand shown; sample: in vitro; concentration: 600 nM; reading: higher = stronger binding
Target: Sal-like protein 4, full length isoform A (SALL4, Homo sapiens, UniProt Q9UJQ4, residues 1-1053)
UniProt Q9UJQ4, sequence (whole entry, looked up): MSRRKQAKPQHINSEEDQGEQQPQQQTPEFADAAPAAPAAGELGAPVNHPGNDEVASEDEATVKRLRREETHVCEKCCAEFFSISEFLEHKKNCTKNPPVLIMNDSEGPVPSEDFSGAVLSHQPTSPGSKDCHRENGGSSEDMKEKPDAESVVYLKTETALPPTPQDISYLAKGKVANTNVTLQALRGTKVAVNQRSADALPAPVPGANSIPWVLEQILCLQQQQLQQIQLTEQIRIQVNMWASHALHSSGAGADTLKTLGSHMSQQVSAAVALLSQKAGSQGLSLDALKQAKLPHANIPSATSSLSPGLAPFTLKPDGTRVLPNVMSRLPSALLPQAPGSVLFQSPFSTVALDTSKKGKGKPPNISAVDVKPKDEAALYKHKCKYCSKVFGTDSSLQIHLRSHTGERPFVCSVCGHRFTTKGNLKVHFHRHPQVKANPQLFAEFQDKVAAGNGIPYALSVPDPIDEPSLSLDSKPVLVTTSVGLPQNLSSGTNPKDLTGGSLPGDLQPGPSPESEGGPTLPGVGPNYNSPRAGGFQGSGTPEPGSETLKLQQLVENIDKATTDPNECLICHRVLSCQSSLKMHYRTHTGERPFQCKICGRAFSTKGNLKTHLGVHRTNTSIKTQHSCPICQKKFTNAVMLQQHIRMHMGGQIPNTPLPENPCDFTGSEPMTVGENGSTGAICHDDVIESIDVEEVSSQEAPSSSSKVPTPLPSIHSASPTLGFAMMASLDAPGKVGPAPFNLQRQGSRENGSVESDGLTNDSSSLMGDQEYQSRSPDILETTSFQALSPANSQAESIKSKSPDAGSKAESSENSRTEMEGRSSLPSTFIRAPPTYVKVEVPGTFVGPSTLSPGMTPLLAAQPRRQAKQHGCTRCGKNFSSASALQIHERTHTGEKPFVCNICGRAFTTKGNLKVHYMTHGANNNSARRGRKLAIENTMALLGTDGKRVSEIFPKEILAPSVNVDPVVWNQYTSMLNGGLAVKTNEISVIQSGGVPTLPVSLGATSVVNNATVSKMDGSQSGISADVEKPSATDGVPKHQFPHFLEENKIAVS
Notes: 8-mer, flanks averaged, mean of replicates
Strand	E-score
ATGAGGCA	0.0195
ACAAGGCT	-0.0383
CATGGCTA	0.0812
ACGTATTG	0.0936
GAATTCCC	-0.00873
CCCACGCG	-0.318
AGTATAAG	0.292
ATGCAGTG	-0.106
AGGATTCA	0.147
CCGTTTAG	-0.116

Study 4 — method: Sort-seq; refers to: YFP reporter; sample: E. coli; notes: PhoQ-PhoP variant library; with: 10 µM Mg2+; reference: high Mg2+ state; reading: higher = stronger signaling
Molecule: PhoQ, residues 284 288 289 292 302 303 TAVSDG
target	fold induction
PhoP, residues 12 14 15 18 19 LHTVL (Escherichia coli, UniProt P23836)	1.1
PhoP, residues 12 14 15 18 19 NQCAL (Escherichia coli, UniProt P23836)	18
PhoP, residues 12 14 15 18 19 TQAML (Escherichia coli, UniProt P23836)	16.1

A few entries again (study 1):
Strand	log2 enrichment
CCUCAAGUCCUGUGCUACACAUCGUAUGUACCGAAUCGGGCGGGCGGGGCGGGAAAGUAUUAUGUUACGCCGUUCGGAUCUGCACUUCCA	1.56
CACAGACAACACGCACCCACACAGACACAGAGGGAACGGGUUGGGAUGGGGACAGGGUGCACAGCAGGGCGGGGUAGGACCCCAGCCCCU	1.97
